Results from different studies.
Parts stem from different laboratories: compare values within a part only.
Chain of UniProt O24408 (whole entry, looked up): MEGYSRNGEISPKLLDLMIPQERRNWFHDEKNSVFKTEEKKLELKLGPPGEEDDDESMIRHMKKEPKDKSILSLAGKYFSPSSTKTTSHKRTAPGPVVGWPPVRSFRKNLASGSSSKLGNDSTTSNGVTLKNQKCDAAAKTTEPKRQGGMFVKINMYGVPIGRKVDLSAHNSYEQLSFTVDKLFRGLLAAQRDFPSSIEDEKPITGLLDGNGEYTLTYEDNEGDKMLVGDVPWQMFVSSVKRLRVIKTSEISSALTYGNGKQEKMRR
Chain of UniProt O24409 (whole entry, looked up): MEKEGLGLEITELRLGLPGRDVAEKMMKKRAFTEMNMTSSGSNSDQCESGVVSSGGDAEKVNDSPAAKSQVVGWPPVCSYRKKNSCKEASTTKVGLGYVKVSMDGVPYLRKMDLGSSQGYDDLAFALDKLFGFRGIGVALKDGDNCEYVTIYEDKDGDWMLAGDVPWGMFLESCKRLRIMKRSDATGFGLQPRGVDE
Chain of UniProt Q9ZTX8 (whole entry, looked up): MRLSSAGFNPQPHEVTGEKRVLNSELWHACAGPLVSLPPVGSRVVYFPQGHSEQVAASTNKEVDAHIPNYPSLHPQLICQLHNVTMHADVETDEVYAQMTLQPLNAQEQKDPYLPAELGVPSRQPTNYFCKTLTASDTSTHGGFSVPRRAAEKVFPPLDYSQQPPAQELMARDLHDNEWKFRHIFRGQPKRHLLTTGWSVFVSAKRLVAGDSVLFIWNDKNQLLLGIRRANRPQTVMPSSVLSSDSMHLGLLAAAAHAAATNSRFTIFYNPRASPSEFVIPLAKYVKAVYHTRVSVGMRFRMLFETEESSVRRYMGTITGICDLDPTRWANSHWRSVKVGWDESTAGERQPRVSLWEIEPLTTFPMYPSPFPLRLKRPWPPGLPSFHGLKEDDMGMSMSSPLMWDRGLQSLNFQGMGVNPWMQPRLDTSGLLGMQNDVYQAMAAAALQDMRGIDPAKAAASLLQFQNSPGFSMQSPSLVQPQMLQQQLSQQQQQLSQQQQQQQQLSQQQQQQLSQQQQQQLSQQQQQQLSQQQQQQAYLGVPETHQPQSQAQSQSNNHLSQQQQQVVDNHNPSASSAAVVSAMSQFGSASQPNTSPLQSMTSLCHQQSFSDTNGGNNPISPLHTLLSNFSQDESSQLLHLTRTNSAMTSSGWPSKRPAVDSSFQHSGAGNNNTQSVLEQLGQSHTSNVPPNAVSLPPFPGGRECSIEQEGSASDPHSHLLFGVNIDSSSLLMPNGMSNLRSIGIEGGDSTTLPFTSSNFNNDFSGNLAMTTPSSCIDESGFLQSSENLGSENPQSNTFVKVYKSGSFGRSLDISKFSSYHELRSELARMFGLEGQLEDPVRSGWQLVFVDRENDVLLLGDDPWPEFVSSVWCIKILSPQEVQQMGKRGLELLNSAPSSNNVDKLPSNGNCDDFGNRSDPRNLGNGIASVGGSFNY
Chain of UniProt Q9XED8 (whole entry, looked up): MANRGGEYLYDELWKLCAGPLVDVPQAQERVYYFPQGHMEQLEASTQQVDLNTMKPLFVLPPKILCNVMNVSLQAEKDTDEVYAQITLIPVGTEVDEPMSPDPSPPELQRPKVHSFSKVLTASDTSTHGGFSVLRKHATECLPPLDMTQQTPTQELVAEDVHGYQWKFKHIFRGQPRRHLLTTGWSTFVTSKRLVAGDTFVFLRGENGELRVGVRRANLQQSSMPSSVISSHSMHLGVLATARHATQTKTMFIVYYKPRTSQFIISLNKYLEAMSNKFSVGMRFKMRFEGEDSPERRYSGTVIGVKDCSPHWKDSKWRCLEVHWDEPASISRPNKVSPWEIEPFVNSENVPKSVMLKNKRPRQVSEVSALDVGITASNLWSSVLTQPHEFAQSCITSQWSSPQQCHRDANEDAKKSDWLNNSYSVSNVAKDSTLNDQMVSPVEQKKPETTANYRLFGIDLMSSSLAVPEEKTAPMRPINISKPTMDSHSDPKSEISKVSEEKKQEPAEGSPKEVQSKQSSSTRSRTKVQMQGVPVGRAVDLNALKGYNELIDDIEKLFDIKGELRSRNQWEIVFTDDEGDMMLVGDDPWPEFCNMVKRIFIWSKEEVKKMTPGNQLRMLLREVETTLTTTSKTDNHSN

Set 1
Target: Sal-like protein 4, full length isoform A (SALL4, Homo sapiens, UniProt Q9UJQ4, residues 1-1053)
Chain of UniProt Q9UJQ4 (whole entry, looked up): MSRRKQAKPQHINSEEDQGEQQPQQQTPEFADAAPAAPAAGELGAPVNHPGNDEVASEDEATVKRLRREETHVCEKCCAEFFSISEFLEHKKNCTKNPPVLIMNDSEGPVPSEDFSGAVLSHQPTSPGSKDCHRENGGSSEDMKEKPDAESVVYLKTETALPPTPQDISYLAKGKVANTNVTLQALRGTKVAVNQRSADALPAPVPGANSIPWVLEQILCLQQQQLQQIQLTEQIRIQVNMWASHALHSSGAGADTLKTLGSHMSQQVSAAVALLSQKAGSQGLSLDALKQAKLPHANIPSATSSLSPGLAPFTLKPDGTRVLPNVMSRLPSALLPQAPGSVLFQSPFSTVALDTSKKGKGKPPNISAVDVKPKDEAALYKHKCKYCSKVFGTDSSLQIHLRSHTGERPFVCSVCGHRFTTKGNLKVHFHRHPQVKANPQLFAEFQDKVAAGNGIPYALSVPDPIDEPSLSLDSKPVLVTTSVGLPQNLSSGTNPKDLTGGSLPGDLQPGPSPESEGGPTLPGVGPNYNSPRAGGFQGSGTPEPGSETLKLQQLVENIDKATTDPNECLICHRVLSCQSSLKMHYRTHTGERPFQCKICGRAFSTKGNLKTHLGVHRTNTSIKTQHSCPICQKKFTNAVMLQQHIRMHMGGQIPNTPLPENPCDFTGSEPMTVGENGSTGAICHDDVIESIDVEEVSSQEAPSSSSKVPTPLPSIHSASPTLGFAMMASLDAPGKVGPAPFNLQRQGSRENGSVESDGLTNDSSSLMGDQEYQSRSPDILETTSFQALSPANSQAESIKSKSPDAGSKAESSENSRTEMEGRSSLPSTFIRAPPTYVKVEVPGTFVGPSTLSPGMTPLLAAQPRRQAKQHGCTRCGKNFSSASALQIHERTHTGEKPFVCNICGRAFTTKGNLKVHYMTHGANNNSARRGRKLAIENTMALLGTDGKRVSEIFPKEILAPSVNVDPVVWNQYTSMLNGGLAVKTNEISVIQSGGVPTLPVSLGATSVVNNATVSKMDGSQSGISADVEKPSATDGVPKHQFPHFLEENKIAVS
Technique: universal PBM
Form: double-stranded DNA, one strand shown
Matrix: in vitro
Tested at: 600 nM
Setting: 8-mer, flanks averaged, mean of replicates
Direction: higher = stronger binding
Oligonucleotide | E-score
TAGTTTAA | 0.222
CCTCCGTC | -0.256
CAGCCTCG | -0.182
GAAAATGA | 0.219
CATCATGC | 0.0899
CGATACCG | -0.177
GGCAGAGA | -0.121
GCCCGGAA | -0.287

Set 2
Target: RNA binding protein fox-1 homolog 2, RRM domain, GST-SBP tag (RBFOX2, Homo sapiens, UniProt O43251-10, residues 100-194)
Technique: RNA Bind-n-Seq
Form: RNA
Matrix: in vitro
Tested at: 365 nM
Setting: natural RNA segment, single round, ends assumed
Baseline: no-protein control
Direction: higher = stronger binding
Target sequence (chain): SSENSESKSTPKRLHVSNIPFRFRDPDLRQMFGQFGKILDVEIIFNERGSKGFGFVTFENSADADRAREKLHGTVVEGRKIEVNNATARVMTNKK
Oligonucleotide | RBNS enrichment (R)
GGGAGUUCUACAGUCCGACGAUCUCCCACACUGACAACUUGGCUUCCUUUCUGUGUGUUCAGUCUGUUGUCUGAACUAACACUCCCGCGAGCACUAUACUCUUUAUACUCUGAUCCCCCUAGUUCAUCUUAAAUGGAAUUCUCGGGUGCCAA | 0.54
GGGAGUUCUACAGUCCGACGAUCUCGUACUGAGCAUCCUCAUUUCAACGCAGUAUACGCUCUAGUUAUCAUGUGUAACGUGGGUCUGUUUAGCUGAGAUAGACUAGAGGAGGACACUAGAGAUGCCCAUUCCUUGGAAUUCUCGGGUGCCAA | 0.24
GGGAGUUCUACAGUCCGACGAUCUGCUCUGCCGAGUAGAAAGUAGGUAGGGUCUGAAGGUGUCGAGAAGGCCUUACCUGUGGUGUGACAGAUUGAAUUGAUUGUUUACACUGGGGACUGUAUCUCGGAUCUUUUGGAAUUCUCGGGUGCCAA | 0.722
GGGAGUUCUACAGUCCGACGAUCAAAUUCUCACAGGCCAGGCUCUGUGCGGGCUCUAGUGCCAGGUGUAGCUGGGUACAUUCCCCGUCAGUGUGACUUCCUUUCAUUUUGACAACUUCCUUCCUUUAAGAUGCUGGAAUUCUCGGGUGCCAA | 0.474
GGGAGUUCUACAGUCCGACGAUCUAUUCAGACCUUCAUGAUCAUCCAUCUGGUGAGCAGAGCUUCAUUUGUAUAUAACACUUUCAGAGCCUUCCCACCCAUAGGUAGUUCUUAAACCAGGUGAAAGAGCAAAGUGGAAUUCUCGGGUGCCAA | 0.457
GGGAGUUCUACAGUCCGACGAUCUUUGGAAAACAAAUACAUGCCUACUUUGUGCAUAUUUGCAUUAACAUGGCAAAGAUUGUAUGAAAUACCUGUUUUUCAGAAAAUAAAGGUUCAGUCUCAAAAGAUACAGCUGGAAUUCUCGGGUGCCAA | 0.364
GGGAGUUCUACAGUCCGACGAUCCAGAUUGCAUAGCCUGAAAGAGGCUUCUGUGGCCACCUGGGAGUCUCAGUGUUUUCUUCAAAACUUCUCCAAGAGAGUCCAGGCUCUCACAUCGUCUUCCUGUGCGACCUUGGAAUUCUCGGGUGCCAA | 0.442
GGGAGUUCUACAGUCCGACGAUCUGGUCCCAUUAUUCUAGGGUCUUACUCUUUGUAUGAUGAAAAGAAUGUGUUAUGAAUCGGUGCUGUCAGCCCUGCUGUCAGACCUUCUUCCACAGCAAAUGAGAUGUAUGUGGAAUUCUCGGGUGCCAA | 0.286

Set 3
Molecule: B1 (IAA10)
Technique: two-hybrid
Baseline: out of 4 tests
Direction: higher = firmer interaction
B1: IAA10 (Arabidopsis thaliana, UniProt Q38828); chain MNGLQEVCSSSGSVMIGLPAEEDENAAHSSEDSSCPDESVSETELDLALGLSIGRRKVRSSLSSSSSSLTRESGTKRSADSSPAAASNATRQVAVGWPPLRTYRINSLVNQAKSLATEGGLSSGIQKETTKSVVVAAKNDDACFIKSSRTSMLVKVTMDGVIIGRKVDLNALDSYAALEKTLDLMFFQIPSPVTRSNTQGYKTIKETCTSKLLDGSSEYIITYQDKDGDWMLVGDVPWQMFLGSVTRLRIMKTSIGAGVGK
partner | setting | positive tests
IAA19 (Arabidopsis thaliana, UniProt O24409) | – | 2
IAA18 (Arabidopsis thaliana, UniProt O24408) | – | 4
ARF6 790-935 (Arabidopsis thaliana, UniProt Q9ZTX8) | – | 2
ARF9 519-638 (Arabidopsis thaliana, UniProt Q9XED8) | weak activation fusion | 2

Single results of other studies
Molecule | target | effect on | form | tested at | measurement | value
MTYSHHACR | HLA class I histocompatibility antigen, C alpha chain, allele C*04:01 (Homo sapiens, UniProt P10321) | peptide-MHC binding | peptide | concentration not given | binding | inactive

For quick reference, copied from above (set 2):
Oligonucleotide | RBNS enrichment (R)
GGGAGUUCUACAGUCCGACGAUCUGCUCUGCCGAGUAGAAAGUAGGUAGGGUCUGAAGGUGUCGAGAAGGCCUUACCUGUGGUGUGACAGAUUGAAUUGAUUGUUUACACUGGGGACUGUAUCUCGGAUCUUUUGGAAUUCUCGGGUGCCAA | 0.722
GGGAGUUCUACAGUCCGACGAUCUGGUCCCAUUAUUCUAGGGUCUUACUCUUUGUAUGAUGAAAAGAAUGUGUUAUGAAUCGGUGCUGUCAGCCCUGCUGUCAGACCUUCUUCCACAGCAAAUGAGAUGUAUGUGGAAUUCUCGGGUGCCAA | 0.286
